Published values from different studies.
Every numbered part comes from another study and shows a few of its results, in no order. Several values in a cell are separate wells, animals, samples, runs or records.
Chain of UniProt Q92918 (whole entry, looked up): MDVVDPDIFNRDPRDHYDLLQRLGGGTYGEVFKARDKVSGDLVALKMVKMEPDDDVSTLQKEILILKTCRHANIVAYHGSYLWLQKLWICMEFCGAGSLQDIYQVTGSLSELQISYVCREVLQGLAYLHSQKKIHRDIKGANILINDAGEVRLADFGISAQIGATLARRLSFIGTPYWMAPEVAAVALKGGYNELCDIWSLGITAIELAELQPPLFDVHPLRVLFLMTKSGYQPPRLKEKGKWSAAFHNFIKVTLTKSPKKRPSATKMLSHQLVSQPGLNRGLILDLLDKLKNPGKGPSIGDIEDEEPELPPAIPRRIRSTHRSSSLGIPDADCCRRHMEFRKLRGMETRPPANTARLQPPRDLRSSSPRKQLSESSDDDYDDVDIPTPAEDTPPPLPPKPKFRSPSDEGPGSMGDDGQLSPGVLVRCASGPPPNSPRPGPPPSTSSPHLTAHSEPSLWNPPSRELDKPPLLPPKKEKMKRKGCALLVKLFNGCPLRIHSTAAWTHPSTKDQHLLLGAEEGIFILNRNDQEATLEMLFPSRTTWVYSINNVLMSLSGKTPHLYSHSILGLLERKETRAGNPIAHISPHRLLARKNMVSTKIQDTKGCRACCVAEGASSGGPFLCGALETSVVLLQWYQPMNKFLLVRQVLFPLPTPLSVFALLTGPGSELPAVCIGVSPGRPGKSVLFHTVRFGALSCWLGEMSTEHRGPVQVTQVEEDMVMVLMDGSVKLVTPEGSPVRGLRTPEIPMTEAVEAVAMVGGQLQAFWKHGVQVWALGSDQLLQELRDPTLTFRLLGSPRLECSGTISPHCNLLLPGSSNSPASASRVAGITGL
Chain of UniProt P42684 (whole entry, looked up): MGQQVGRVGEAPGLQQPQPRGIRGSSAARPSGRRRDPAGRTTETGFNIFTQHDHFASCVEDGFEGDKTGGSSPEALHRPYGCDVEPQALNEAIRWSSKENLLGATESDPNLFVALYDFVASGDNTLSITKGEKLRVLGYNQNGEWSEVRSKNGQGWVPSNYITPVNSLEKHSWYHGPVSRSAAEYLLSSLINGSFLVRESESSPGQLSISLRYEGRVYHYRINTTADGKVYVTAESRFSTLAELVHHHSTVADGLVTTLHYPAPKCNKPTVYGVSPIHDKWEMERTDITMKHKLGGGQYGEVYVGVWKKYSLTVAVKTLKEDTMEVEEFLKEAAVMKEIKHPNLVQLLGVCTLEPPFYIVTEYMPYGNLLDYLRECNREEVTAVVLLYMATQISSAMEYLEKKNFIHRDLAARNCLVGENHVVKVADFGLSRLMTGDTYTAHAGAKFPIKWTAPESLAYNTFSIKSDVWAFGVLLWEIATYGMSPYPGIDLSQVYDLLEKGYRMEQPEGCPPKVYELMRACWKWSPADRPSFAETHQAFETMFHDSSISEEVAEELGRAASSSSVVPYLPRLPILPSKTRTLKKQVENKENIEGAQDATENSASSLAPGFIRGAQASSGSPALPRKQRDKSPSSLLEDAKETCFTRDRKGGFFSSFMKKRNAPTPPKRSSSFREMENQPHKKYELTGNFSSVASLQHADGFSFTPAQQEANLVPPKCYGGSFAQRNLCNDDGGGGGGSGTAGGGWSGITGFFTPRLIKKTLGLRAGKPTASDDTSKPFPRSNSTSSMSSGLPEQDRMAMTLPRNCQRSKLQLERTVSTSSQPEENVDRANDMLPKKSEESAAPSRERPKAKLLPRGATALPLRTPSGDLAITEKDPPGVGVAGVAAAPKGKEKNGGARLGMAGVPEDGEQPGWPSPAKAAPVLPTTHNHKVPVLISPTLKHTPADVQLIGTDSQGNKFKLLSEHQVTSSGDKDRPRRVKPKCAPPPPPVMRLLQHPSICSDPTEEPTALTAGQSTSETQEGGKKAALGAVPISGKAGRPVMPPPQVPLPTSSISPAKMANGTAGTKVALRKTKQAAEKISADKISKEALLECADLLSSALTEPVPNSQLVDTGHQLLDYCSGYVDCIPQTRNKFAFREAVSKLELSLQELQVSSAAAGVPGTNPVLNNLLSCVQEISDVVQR
Chain of UniProt Q7KZI7 (whole entry, looked up): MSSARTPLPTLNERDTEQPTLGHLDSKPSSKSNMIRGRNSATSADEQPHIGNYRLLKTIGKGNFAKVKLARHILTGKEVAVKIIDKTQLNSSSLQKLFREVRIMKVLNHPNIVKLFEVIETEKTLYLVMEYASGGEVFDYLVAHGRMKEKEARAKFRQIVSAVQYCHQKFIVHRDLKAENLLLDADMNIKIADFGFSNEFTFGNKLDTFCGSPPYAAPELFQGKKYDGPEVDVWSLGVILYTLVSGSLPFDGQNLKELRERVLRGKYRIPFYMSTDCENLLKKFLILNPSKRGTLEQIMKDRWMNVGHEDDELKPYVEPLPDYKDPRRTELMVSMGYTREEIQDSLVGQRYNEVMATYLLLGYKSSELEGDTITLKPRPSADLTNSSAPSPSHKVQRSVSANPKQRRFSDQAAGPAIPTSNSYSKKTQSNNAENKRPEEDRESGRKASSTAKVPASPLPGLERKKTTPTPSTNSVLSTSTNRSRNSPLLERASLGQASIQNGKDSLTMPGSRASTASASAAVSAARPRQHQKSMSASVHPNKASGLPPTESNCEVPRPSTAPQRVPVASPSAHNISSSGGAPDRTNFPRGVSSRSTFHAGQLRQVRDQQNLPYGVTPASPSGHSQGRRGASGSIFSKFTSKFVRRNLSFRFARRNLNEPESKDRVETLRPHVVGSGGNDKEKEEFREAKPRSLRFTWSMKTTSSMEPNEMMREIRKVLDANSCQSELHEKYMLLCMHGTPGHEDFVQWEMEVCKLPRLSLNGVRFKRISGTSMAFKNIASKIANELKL
Chain of UniProt Q9HBH9 (whole entry, looked up): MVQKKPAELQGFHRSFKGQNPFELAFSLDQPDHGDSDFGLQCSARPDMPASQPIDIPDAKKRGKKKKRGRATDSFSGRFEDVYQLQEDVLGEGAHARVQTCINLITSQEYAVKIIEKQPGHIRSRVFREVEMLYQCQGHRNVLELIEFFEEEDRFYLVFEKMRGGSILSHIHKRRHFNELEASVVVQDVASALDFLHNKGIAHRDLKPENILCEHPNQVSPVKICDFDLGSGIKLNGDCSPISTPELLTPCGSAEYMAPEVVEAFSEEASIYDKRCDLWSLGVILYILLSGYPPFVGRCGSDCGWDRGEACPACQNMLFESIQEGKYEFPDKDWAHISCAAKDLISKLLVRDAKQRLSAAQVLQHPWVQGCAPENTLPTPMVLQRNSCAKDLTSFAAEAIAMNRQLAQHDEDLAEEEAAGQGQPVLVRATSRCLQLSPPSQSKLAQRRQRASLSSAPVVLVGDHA
Chain of UniProt Q13043 (whole entry, looked up): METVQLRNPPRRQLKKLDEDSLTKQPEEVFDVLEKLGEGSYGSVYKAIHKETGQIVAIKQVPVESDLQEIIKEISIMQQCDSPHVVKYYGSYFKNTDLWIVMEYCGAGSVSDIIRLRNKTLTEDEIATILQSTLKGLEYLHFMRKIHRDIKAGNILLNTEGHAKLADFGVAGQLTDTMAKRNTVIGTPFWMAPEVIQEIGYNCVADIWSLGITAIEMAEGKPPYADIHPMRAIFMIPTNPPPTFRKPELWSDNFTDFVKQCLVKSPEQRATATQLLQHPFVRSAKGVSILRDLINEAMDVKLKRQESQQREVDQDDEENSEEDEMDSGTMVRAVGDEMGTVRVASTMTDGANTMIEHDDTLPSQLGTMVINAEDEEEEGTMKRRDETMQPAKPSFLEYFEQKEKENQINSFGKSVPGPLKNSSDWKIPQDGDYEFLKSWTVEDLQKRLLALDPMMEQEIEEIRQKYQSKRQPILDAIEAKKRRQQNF
Chain of UniProt P11309 (whole entry, looked up): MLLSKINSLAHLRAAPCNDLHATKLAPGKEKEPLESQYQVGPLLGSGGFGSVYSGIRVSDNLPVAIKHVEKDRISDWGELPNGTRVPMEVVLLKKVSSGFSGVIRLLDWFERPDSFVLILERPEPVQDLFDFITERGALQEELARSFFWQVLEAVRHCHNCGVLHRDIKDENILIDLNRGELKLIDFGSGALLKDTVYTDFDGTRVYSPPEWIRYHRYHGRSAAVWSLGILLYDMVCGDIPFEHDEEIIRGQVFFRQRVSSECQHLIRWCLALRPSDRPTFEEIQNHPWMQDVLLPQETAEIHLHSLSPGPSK
Chain of UniProt Q96BR1 (whole entry, looked up): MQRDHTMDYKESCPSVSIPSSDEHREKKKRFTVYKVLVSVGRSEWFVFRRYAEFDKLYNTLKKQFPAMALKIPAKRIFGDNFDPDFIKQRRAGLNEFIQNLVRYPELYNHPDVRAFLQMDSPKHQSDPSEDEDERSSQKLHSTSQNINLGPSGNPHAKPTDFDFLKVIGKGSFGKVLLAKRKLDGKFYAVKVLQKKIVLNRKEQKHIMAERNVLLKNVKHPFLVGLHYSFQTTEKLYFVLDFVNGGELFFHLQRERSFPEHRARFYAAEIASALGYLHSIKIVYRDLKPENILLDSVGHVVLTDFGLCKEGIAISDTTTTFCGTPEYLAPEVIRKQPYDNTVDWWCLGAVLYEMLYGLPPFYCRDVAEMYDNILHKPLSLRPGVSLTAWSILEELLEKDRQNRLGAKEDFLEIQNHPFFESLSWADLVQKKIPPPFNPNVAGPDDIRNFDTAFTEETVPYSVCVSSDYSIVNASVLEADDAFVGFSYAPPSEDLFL
Chain of UniProt O43293 (whole entry, looked up): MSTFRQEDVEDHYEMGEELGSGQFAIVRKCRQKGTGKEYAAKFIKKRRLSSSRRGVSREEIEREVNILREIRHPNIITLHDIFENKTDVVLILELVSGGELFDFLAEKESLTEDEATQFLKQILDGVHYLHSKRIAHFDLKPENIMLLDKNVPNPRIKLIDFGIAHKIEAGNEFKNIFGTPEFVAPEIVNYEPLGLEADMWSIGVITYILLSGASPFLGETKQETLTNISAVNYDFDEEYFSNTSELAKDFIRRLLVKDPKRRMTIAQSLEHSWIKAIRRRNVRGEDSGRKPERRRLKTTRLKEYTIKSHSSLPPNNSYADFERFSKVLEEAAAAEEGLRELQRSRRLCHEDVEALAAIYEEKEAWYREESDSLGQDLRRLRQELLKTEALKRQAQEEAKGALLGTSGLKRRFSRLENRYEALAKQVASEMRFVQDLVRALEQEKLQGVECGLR

Sample 1
SMILES: COc1ccc2c(c1)OC(O)(C(=O)O)C(=O)N2Cc1ccccc1 (stereo not shown)
| organism | assay | system | setting | how to read | inhibition |
| --- | --- | --- | --- | --- | --- |
| Arabidopsis thaliana | root length | Col-0 | 25.0 µg/mL, 7 days, seed germination, dark |  | 20.5% |
| Arabidopsis thaliana | hypocotyl length | Col-0, seedlings | 50 µg/mL |  | 36.6% |
| Arabidopsis thaliana | root length | Col-0, seedlings | 12.5 µg/mL | relative to: water control | 10.2% |
| Arabidopsis thaliana | root length | Col-0 | 6.25 µg/mL, 7 days, seed germination, dark |  | 9.9% |
| Abutilon theophrasti | fresh weight |  | 150 g ai/ha, pre-emergence treatment |  | 50.8% and 56.2% and 54.1% |
| Eclipta prostrata | fresh weight |  | 150 g ai/ha, post-emergence treatment |  | 69.2% and 65.8% and 64.2% |
| Arabidopsis thaliana | root length | Col-0, seedlings | 12.5 µg/mL |  | 10.2% |
| Arabidopsis thaliana | root length | Col-0, seedlings | 3.125 µg/mL | relative to: water control | 6.89% |
| Arabidopsis thaliana | hypocotyl length | Col-0 | 6.25 µg/mL, 7 days, seed germination, dark |  | 9.2% |
| Arabidopsis thaliana | root length | Col-0, seedlings | 100 µg/mL | relative to: water control | 81% |
| Alopecurus japonicus | fresh weight |  | 150 g ai/ha, pre-emergence treatment |  | 49.2% and 47.5% and 47.3% |
| Zea mays | fresh weight |  | soil surface spray, 150 g ai/ha, 21 days, pre-emergence crop safety |  | 21.1% and 18.7% and 20.2% |
| Arabidopsis thaliana | root length | Col-0 | 50.0 µg/mL, 7 days, seed germination, dark |  | 46.3% |
| Arabidopsis thaliana | hypocotyl length | Col-0, seedlings | 3.125 µg/mL |  | 5.93% |

Sample 2
Compound: CC[C@@]1(c2cccc(C(F)(F)F)c2)C2=C(Nc3n[nH]cc31)[C@H](F)C(C)(C)CC2=O (single isomer, unassigned)
Tested at: 1 µM
| target | read-out | method | relative to | remaining binding |
| --- | --- | --- | --- | --- |
| Tyrosine-protein kinase ABL1, phosphorylated (ABL1, Homo sapiens, UniProt P00519, F317I) | binding | competition with immobilised ligand |  | 84% |
| Mitogen-activated protein kinase kinase kinase kinase 1 (MAP4K1, Homo sapiens, UniProt Q92918) | binding | competition with immobilised ligand |  | 58% |
| Death-associated protein kinase 3 (DAPK3, Homo sapiens, UniProt O43293) | kinase binding | KINOMEscan | DMSO control | 94% |
| Mitogen-activated protein kinase 12 (MAPK12, Homo sapiens, UniProt P53778) | binding | competition with immobilised ligand |  | 100% |
| Serine/threonine-protein kinase MARK2 (MARK2, Homo sapiens, UniProt Q7KZI7) | kinase binding | KINOMEscan | DMSO control | 17% |
| Serine/threonine-protein kinase ULK2 (ULK2, Homo sapiens, UniProt Q8IYT8) | binding | competition with immobilised ligand |  | 95% |
| Serine/threonine-protein kinase pim-1 (PIM1, Homo sapiens, UniProt P11309) | kinase binding | KINOMEscan | DMSO control | 100% |
| Serine/threonine-protein kinase 4 (STK4, Homo sapiens, UniProt Q13043) | kinase binding | KINOMEscan | DMSO control | 100% |
| Tyrosine-protein kinase ABL1, phosphorylated (ABL1, Homo sapiens, UniProt P00519, H396P) | kinase binding | KINOMEscan | DMSO control | 72% |
| MAP kinase-interacting serine/threonine-protein kinase 2 (MKNK2, Homo sapiens, UniProt Q9HBH9) | kinase binding | KINOMEscan | DMSO control | 100% |
| Vascular endothelial growth factor receptor 3 (FLT4, Homo sapiens, UniProt P35916) | kinase binding | KINOMEscan | DMSO control | 100% |
| Serine/threonine-protein kinase Sgk3 (SGK3, Homo sapiens, UniProt Q96BR1) | binding | competition with immobilised ligand |  | 100% |
| Tyrosine-protein kinase ABL2 (ABL2, Homo sapiens, UniProt P42684) | kinase binding | KINOMEscan | DMSO control | 89% |

Sample 3
Cell line: HCC1569
Read-out: CDK1 Thr14 phosphorylation
Method: in-cell western
Tested at: 37.04 nM
Reading: lower = stronger inhibition
| SMILES | phospho-CDK1 (Thr14) level |
| --- | --- |
| Cc1ccc(O)c(C)c1-c1cnc2[nH]c(-c3cnc(N4CCC(CN5CCN(c6cc7c(cc6F)n(C6CCC(=O)NC6=O)c(=O)n7C)CC5)CC4)nc3)cc2c1C#N (stereo not shown) | 17.7 a.u. and 12.2 a.u. |
| Cc1ccc(O)c(C)c1-c1cnc2[nH]c(-c3cnc(N4CCC(CN5CCN(c6ccc7c(c6)C(=O)N(C6CCC(=O)NC6=O)C7=O)CC5)CC4)nc3)cc2c1C#N (stereo not shown) | 43.7 a.u. and 52.8 a.u. |
| Cc1ccc(O)c(C)c1-c1cnc2[nH]c(-c3cnc(N4CCC(CN5CCN(c6ccc(NC7CCC(=O)NC7=O)cc6F)CC5)CC4)nc3)cc2c1C#N (stereo not shown) | 47.2 a.u. and 38.2 a.u. |
| Cc1ccc(O)c(C)c1-c1cnc2[nH]c(-c3cnc(N4CC5(CC(CN6CCN(c7ccc(NC8CCC(=O)NC8=O)cc7F)CC6)C5)C4)nc3)cc2c1C#N (stereo not shown) | 53.6 a.u. and 62.4 a.u. |
| Cc1ccc(O)c(C)c1-c1cnc2[nH]c(-c3cnc(N4CCC(CN5CCC(c6ccc(NC7CCC(=O)NC7=O)cc6F)CC5)CC4)nc3)cc2c1C#N (stereo not shown) | 51.5 a.u. and 33.9 a.u. |

Sample 4
SMILES: CCN1/C(=C/C=C2\CCCC(/C=C/C3=[N+](CC)c4ccccc4C3(C)C)=C2NCCCCCCCCN2CCC(Nc3nc4ccccc4n3Cc3ccc(F)cc3)CC2)C(C)(C)c2ccccc21
Cell line: U-87 MG
Tested at: concentration not given
Relative to: DMSO
| measured | log2 fold change |
| --- | --- |
| KDM7A mRNA | 2.14 |
| CCNO mRNA | 1.44 |
| VGLL3 mRNA | -1.35 |
| SLC16A2 mRNA | -1.27 |
| PRR5L mRNA | -1.25 |
| NRG1 mRNA | 1.5 |
| C1RL mRNA | -1.07 |
| IGSF10 mRNA | -2.51 |
| SOST mRNA | -6.55 |
| COL7A1 mRNA | -0.963 |
| PRKAB2 mRNA | 0.857 |

Excerpt of the above (sample 4):
| measured | log2 fold change |
| --- | --- |
| NRG1 mRNA | 1.5 |
| C1RL mRNA | -1.07 |
| IGSF10 mRNA | -2.51 |
| SOST mRNA | -6.55 |
| COL7A1 mRNA | -0.963 |
| PRKAB2 mRNA | 0.857 |
